Assay results of several laboratories.
Numbers after ± are the reported error.

| SMILES | assay | system | conditions | scale | endpoint | value |
| --- | --- | --- | --- | --- | --- | --- |
| CSc1ccccc1C(=O)NCCn1cc(C(=O)NCc2cccc(C)n2)c(=O)c2cc3c(cc21)OC(F)(F)O3 | – | Sprague-Dawley rat, male, whole blood | intravenous, 5 mg/kg of parent compound | – | Tmax | 4.98 min |
| Cc1ccc([C@@H]2O[C@H](CO)[C@@H](O)[C@H](O)[C@H]2O)cc1Cc1ccc(-c2ccc(F)cc2)s1 | – | Japanese type 2 diabetes patients | 400 mg, day 1, 24 h urine collection | baseline: baseline | urinary potassium excretion change | 3.25 mEq |
| CC(C)(C(=O)N1CCOc2c(C#N)cncc2C1)C(F)F | item: phlebitis | human, both sexes | oral, 15 mg twice daily, 14 days, multiple ascending dose | – | subjects with TEAE | 0% |
| COc1ccc2[nH]c([S+]([O-])Cc3ncc(C)c(OC)c3C)nc2c1 (stereo not drawn) | – | human male, plasma and dried plasma spots | oral, dose not given, 4 h, after rifampicin | – | R/S ratio | 0.76 |
| COc1c(O)cc(C(=O)O)cc1OS(=O)(=O)O | – | human plasma | median | – | plasma concentration | 222 nM |
| Cc1cc(C)c(CNC(=O)c2cc(Cl)c3c(c2C)O[C@@](C)([C@H]2CC[C@H](N(C)C)CC2)O3)c(=O)[nH]1 | – | relapsed/refractory NHL patients | oral, 200 mg once daily, onset after cycle 1 day 1 | – | grade ≥3 Lymphocyte count decreased | 4.2% |
| NC1(C(=O)N[C@@H](CCO)c2ccc(Cl)cc2)CCN(c2nc[nH]c3nccc2-3)CC1 | – | metastatic CRPC patients | dose not given, any grade, treatment-related, all doses, added: enzalutamide 160 mg daily | – | incidence of Amnesia | 6.7% |
| CNCc1ccc(-c2[nH]c3cc(F)cc4c3c2CCNC4=O)cc1 | – | patients | oral, 600 mg twice daily, grade 1 | – | abdominal pain incidence | 3.8% |
| CCn1cc(C(=O)O)c(=O)c2cnc(N3CCNCC3)nc21 | starch gel membrane permeability | Gram-negative envelope surrogate | 200 µM, 20 min, pH 7.4 | – | amount permeated | 1.51 nmol |
| O=C(O)CCc1ccc(O)c(O[C@@H]2O[C@H](C(=O)O)[C@@H](O)[C@H](O)[C@H]2O)c1 | – | human plasma | mean | – | plasma concentration | 616 nM |
| N#Cc1ccc2c(c1)[C@H]1CCCN(C(=O)c3ccc4[nH]cnc4c3)[C@H]1C2 | – | human | 160 mg, end of trial | – | maximum ACTH level | 9.1 pmol/L |
| O=C(N[C@H](Cc1c[nH]c2ccccc12)C(=O)Nc1ccncc1)c1ccc(-c2ccc(F)c(Cl)c2)cc1F | – | Swiss Webster mouse, female, muscle | oral, 50 mg/kg, 2 h, 20% HPβCD vehicle | – | concentration | 510 nM |
| NC[C@H]1O[C@H](O[C@H]2[C@H](O)[C@@H](O[C@H]3O[C@H](CO)[C@@H](O)[C@H](N)[C@H]3O)[C@H](N)C[C@@H]2N)[C@H](N)C[C@@H]1O | starch gel membrane permeability | Gram-negative envelope surrogate | 200 µM, 10 min, pH 7.4 | – | amount permeated | 0.18 nmol |
| CC[C@@](O)(c1cnc(C(F)(F)F)c(Cl)c1)c1c2ccn(C3CC3)c(=O)c2nn1C | – | rat Sprague-Dawley male, plasma | intravenous, 1 mg/kg | – | CL | 1.94 ± 0.202 mL/min/kg |
| O=C(O)C=Cc1ccc(O[C@@H]2O[C@H](C(=O)O)[C@@H](O)[C@H](O)[C@H]2O)cc1 | – | human plasma | median | – | plasma concentration | 96.3 nM |
| CC[C@H](C)[C@H](NC(=O)[C@H](Cc1ccccc1)NC(=O)[C@H](CCC(=O)O)NC(=O)[C@H](CCCCNC(=O)COCCOCCNC(=O)COCCOCCNC(=O)CC[C@H](NC(=O)CCCCCCCCCCCCCCCCC(=O)O)C(=O)O)NC(=O)[C@H](C)NC(=O)[C@H](C)NC(=O)[C@H](CCC(N)=O)NC(=O)CNC(=O)[C@H](CCC(=O)O)NC(=O)[C@H](CC(C)C)NC(=O)[C@H](Cc1ccc(O)cc1)NC(=O)[C@H](CO)NC(=O)[C@H](CO)NC(=O)[C@@H](NC(=O)[C@H](CC(=O)O)NC(=O)[C@H](CO)NC(=O)[C@@H](NC(=O)[C@H](Cc1ccccc1)NC(=O)[C@@H](NC(=O)CNC(=O)[C@H](CCC(=O)O)NC(=O)C(C)(C)NC(=O)[C@@H](N)Cc1cnc[nH]1)[C@@H](C)O)[C@@H](C)O)C(C)C)C(=O)N[C@@H](C)C(=O)N[C@@H](Cc1c[nH]c2ccccc12)C(=O)N[C@@H](CC(C)C)C(=O)N[C@H](C(=O)N[C@@H](CCCNC(=N)N)C(=O)NCC(=O)N[C@@H](CCCNC(=N)N)C(=O)NCC(=O)O)C(C)C | – | type 2 diabetes patients | dose not given, hypoglycaemic clamp, nadir PG 5.5 mmol/L | baseline: placebo | systolic blood pressure difference | 0.2 mm Hg |
| CNC(=O)c1ccc(-c2cnc3ncc(Cc4ccc5ncccc5c4)n3n2)cc1F | CTCAE v4.0, any causality | human cancer patients | oral, 600 mg twice daily, expansion, other tumours, RP2D | – | back pain incidence (all grades) | 17% |
| CN1C(=O)[C@@H](NC(=O)c2nnc(Cc3ccccc3)[nH]2)COc2cccnc21 | phase I single ascending dose | human, male and female | oral, 10 mg, fasted | – | participants with any serious TEAE | 0% |
| Cc1ccc(Sc2ccccc2N2CCNCC2)c(C)c1 | item: blood in urine | healthy adult women | oral, 10 mg daily, 12 days | – | participants with TEAE | 0% |
| Cc1cc(Nc2cc3ncccc3c(N[C@@H]3C[C@H]4CC[C@@H](C3)N4CCC#N)n2)n[nH]1 | – | human, plasma | 30 mg single dose, mean | – | AUC(0-24) | 4.28 ng·h/mL |
| COc1cc(/C=C/C(=O)OC2CC(O)(C(=O)O)CC(O)C2O)ccc1O (stereo not drawn) | – | human plasma | mean | – | plasma concentration | 59 nM |

| SMILES | assay | system | conditions | scale | endpoint | value |
| --- | --- | --- | --- | --- | --- | --- |
| C[C@@H](N)c1cc(Cl)ccc1Cn1c(=S)[nH]c(=O)c2[nH]ccc21 | – | human matched controls | oral, 2.5 mg single dose | – | drug-related adverse events | 0% |
| O=C(O)c1ccc(OS(=O)(=O)O)c(O)c1 | – | human plasma | median | – | plasma concentration | 105 nM |
| Nc1ncn([C@H]2C[C@H](O)[C@@H](CO)O2)c(=O)n1 | – | mouse plasma | 1.2 ng/mL, -80 °C, three freeze-thaw cycles, no THU | – | mean deviation from nominal | 10.3% |
| CCc1cc(C(=O)NC)c2nccc(N3CCc4c(cc(Cn5ccnc5)cc4-c4cn(C)nc4C(F)(F)F)C3=O)c2c1 | – | Sprague Dawley rat | oral, 100 mg/kg twice daily, 7 days | – | lung weight | 1.15 ± 0.087 g |
| CCCCOC(=O)N1CCN(C(=O)[C@H](CP(=O)(O)O)NC(=O)c2cc(N3CC[C@H](OC)C3)nc(-c3ccccc3)n2)CC1 | item: haemoglobin | human, blood | 16 mg, 24 h post-dose | – | change from baseline | -0.5 ± 6 g/L |
| Cc1c(C(=O)O)ccc2c3n(nc12)[C@@H]1[C@H](C3)N(CC2CC2)[C@@]2(C(=O)Nc3cc(Cl)ccc32)[C@H]1c1cccc(Cl)c1F | – | human patients phase Ia | oral, dose not given, grade ≥3, all patients | – | back pain incidence | 0% |
| O=C(O)CCc1ccc(O)c(O)c1 | – | human plasma | mean | – | plasma concentration | 266 nM |
| C=CC(=O)Nc1cc(Nc2nccc(Nc3cc(Cl)c(F)cc3C(C)(C)O)n2)c(OC)cc1N1CC[C@@H](N(C)C)C1 | – | human patients, plasma | oral, 50 mg daily, cycle 2 day 1, geometric mean | – | AUCtau | 1270 ng·h/mL |
| Cc1cc(-c2nccc3c2ccn3CC(=O)Nc2ccc(-c3cnccn3)cn2)ccn1 | – | human | 15 mg once daily, multiple ascending dose | – | foreign body sensation | 11.1% |
| Cn1cc(Nc2nccc(-c3ccc4c(c3)CN(C3COC3)CC[C@H]4NC(=O)c3cn(C(C)(C)C)nn3)n2)cn1 | item: transitional B cells | human, clinical trial, whole blood | 50 mg twice daily, follow-up | – | percent change from baseline | -17.1% |
| N[C@@H]1c2ccccc2OC12CCN(c1cnc3c(N4CCCc5ncccc54)n[nH]c3n1)CC2 | – | advanced metastatic solid tumour patients, plasma | oral, 10 mg once daily, cycle 1 day 1, geometric mean | – | AUC(0-tau) | 1170 ng·h/mL |
| O=C(/C=C/CCc1ccc(O)cc1)/C=C/c1ccc(O)cc1 | – | nude mouse MCF7 xenograft | 10 mg/kg, day 9 | – | body weight | 20.5 ± 1.5 g |
| CCc1nc(C(N)=O)c(Nc2ccc(N3CCC(N4CCN(C)CC4)CC3)c(OC)c2)nc1NC1CCOCC1 | – | Japanese patients, plasma | oral, 200 mg, cycle 1 day 28, multiple doses, median | baseline: single dose | accumulation ratio (AUC) | 8.83 |
| CC(=O)O[C@H]1C(=O)[C@@]2(C)[C@H]([C@H](OC(=O)c3ccccc3)[C@]3(O)C[C@H](OC(=O)[C@H](O)[C@@H](NC(=O)c4ccccc4)c4ccccc4)C(C)=C1C3(C)C)[C@]1(OC(C)=O)CO[C@@H]1C[C@@H]2O | item: Pyrexia | patients with advanced solid tumours | intravenous, dose not given, grade 3 and 4, possibly related to drug | – | adverse event incidence | 0% |
| O=C1NCCc2nc(OCc3cccc(F)c3)ccc21 | modified Irwin test | Sprague-Dawley rat, male | oral, 100 mg/kg, 30 min | higher = stronger effect | pinna reflex loss score | 0.4 |
| O=C(N[C@H](CO)[C@H](O)c1ccc([N+](=O)[O-])cc1)C(Cl)Cl | starch gel membrane permeability | Gram-negative envelope surrogate | 200 µM, 45 min, pH 7.4 | – | amount permeated | 3.5 nmol |
| CC(C)n1c(Nc2cccnc2)nc2cnc(Nc3ccc(N4CCN(C)CC4)cc3)nc21 | item: cardiac disorders (SOC) | healthy human, male | oral, dose not given, CTCAE grade 1-3 | – | subjects with TEAE | 4.8% |
| CNC(=O)c1cc(Oc2ccc(NC(=O)Nc3cc(C(C)(C)C)nn3-c3ccc4ncccc4c3)c(F)c2)ccn1 | item: worst grade 2 | human | oral, dose not given, cycles 1 and 2, Medium AUC(0-4 h) subgroup | – | patients with musculoskeletal disorder AE | 14% |
| NC(=O)N1c2ccccc2C=Cc2ccccc21 | item: gingival bleeding | human male | oral, dose not given, CTCAE on-treatment AEs | – | adverse events incidence | 0% |
| COc1ccc2c(=O)n(C)c(-c3ccccc3)nc2c1 | – | Sprague-Dawley rat, male, small intestine | oral, 30 mg/kg, 0.25 h, mean | – | tissue-to-plasma ratio | 25400 |
| CCC[C@@H]1C[C@@H](C(=O)N[C@@H]([C@H]2O[C@H](SC)[C@H](O)[C@@H](O)[C@H]2O)[C@@H](C)O)N(C)C1 | starch gel membrane permeability | Gram-negative envelope surrogate | 200 µM, 30 min, pH 7.4 | – | amount permeated | 1.41 nmol |

Excerpt of the above:
| SMILES | assay | system | conditions | scale | endpoint | value |
| --- | --- | --- | --- | --- | --- | --- |
| CC[C@H](C)[C@H](NC(=O)[C@H](Cc1ccccc1)NC(=O)[C@H](CCC(=O)O)NC(=O)[C@H](CCCCNC(=O)COCCOCCNC(=O)COCCOCCNC(=O)CC[C@H](NC(=O)CCCCCCCCCCCCCCCCC(=O)O)C(=O)O)NC(=O)[C@H](C)NC(=O)[C@H](C)NC(=O)[C@H](CCC(N)=O)NC(=O)CNC(=O)[C@H](CCC(=O)O)NC(=O)[C@H](CC(C)C)NC(=O)[C@H](Cc1ccc(O)cc1)NC(=O)[C@H](CO)NC(=O)[C@H](CO)NC(=O)[C@@H](NC(=O)[C@H](CC(=O)O)NC(=O)[C@H](CO)NC(=O)[C@@H](NC(=O)[C@H](Cc1ccccc1)NC(=O)[C@@H](NC(=O)CNC(=O)[C@H](CCC(=O)O)NC(=O)C(C)(C)NC(=O)[C@@H](N)Cc1cnc[nH]1)[C@@H](C)O)[C@@H](C)O)C(C)C)C(=O)N[C@@H](C)C(=O)N[C@@H](Cc1c[nH]c2ccccc12)C(=O)N[C@@H](CC(C)C)C(=O)N[C@H](C(=O)N[C@@H](CCCNC(=N)N)C(=O)NCC(=O)N[C@@H](CCCNC(=N)N)C(=O)NCC(=O)O)C(C)C | – | type 2 diabetes patients | dose not given, hypoglycaemic clamp, nadir PG 5.5 mmol/L | baseline: placebo | systolic blood pressure difference | 0.2 mm Hg |
| CC[C@@](O)(c1cnc(C(F)(F)F)c(Cl)c1)c1c2ccn(C3CC3)c(=O)c2nn1C | – | rat Sprague-Dawley male, plasma | intravenous, 1 mg/kg | – | CL | 1.94 ± 0.202 mL/min/kg |
| CSc1ccccc1C(=O)NCCn1cc(C(=O)NCc2cccc(C)n2)c(=O)c2cc3c(cc21)OC(F)(F)O3 | – | Sprague-Dawley rat, male, whole blood | intravenous, 5 mg/kg of parent compound | – | Tmax | 4.98 min |
| COc1c(O)cc(C(=O)O)cc1OS(=O)(=O)O | – | human plasma | median | – | plasma concentration | 222 nM |
| Cn1cc(Nc2nccc(-c3ccc4c(c3)CN(C3COC3)CC[C@H]4NC(=O)c3cn(C(C)(C)C)nn3)n2)cn1 | item: transitional B cells | human, clinical trial, whole blood | 50 mg twice daily, follow-up | – | percent change from baseline | -17.1% |
